Measurements from different studies.
Compare with care: the assays were run in different laboratories. Numbers after ± are the reported error.
Organism: Mycobacterium tuberculosis

SMILES	observed	technique	cell line	strain	time	setting	IC50 [µM]
N#CC1(C(=O)NCCCNc2ccc(C(F)(F)F)cn2)CCCC1	microbial growth	–	–	–	–	–	0.83
C=CCNC(=O)N1Cc2ccc(NC(=O)NC3CC3c3ccccc3)cc2C1 (stereo not drawn)	–	resazurin	–	wild type	168 h	nutrient-starved	4
Cc1c(-c2ccc(Oc3ccc(OC(F)(F)F)cc3)nc2)[nH]c2ccccc2c1=O	bacterial growth	–	–	H37Rv	–	Wayne model, oxygen-limited	> 10
Cc1cccc(-c2nc(Nc3ccncn3)c3sccc3n2)n1	microbial growth	–	–	–	–	–	11.6
CCC1=NN2C(=N)C(=Cc3ccc(Sc4ccc(C)cc4)o3)C(=O)N=C2S1	–	resazurin	–	wild type	168 h	nutrient-starved	2
O=C(Nc1ccc(F)c(F)c1F)NC12CC3CC(CC(C3)C1)C2	microbial growth	–	–	–	–	–	0.04
CCCCCCC#Cc1cncc(-c2nnc(SC[C@H]3O[C@@H](n4ccc(=O)[nH]c4=O)[C@@H]4OC(C)(C)O[C@@H]43)n2C)c1	microbial growth	resazurin	–	ERDMAN	–	–	26
CCc1ccc(CN2CCC3(CC2)OCCc2sccc23)s1	microbial growth	–	–	–	–	–	3.43
Cc1ccc(C(=O)OC(C)C)c(N2CCN(Cc3ccccc3OC(F)F)CC2)n1	–	resazurin	–	wild type	168 h	nutrient-starved	8
Nc1c2c(nc3sc4c(c13)CCCCC4)CCCC2	ATP level	–	–	H37Rv	–	anaerobic	> 10
COC(=O)C(=O)[C@H](CC(C)C)NC(=O)[C@H](CCCCN)NC(=O)[C@H](Cc1ccccc1)NC(=O)OCc1ccccc1	bacterial growth	–	THP-1 macrophages	Mtb-lux	24 h	–	16.4 ± 4.4
NC(=O)c1cc(-c2ccsc2)ccc1OCCc1cc(F)cc(F)c1	microbial growth	–	–	–	–	–	0.07
COc1ccc2c(=O)c(C)c(-c3ccc(N4CCCCC4)cc3)[nH]c2c1	bacterial growth	–	–	H37Rv	–	Wayne model, oxygen-limited	0.6 ± 0.12
CN(C)c1ccc(-c2nc3ccccc3n2CCCOc2ccccc2)cc1	ATP level	–	–	H37Rv	–	anaerobic	9.74
CC(C)(C)c1ccc(-c2cncc(-c3nc4ccc5cc(C(=O)O)cc(O)c5c4[nH]3)c2)cc1	–	resazurin	–	wild type	168 h	nutrient-starved	4

Repeated from above:
SMILES	observed	technique	cell line	strain	time	setting	IC50 [µM]
NC(=O)c1cc(-c2ccsc2)ccc1OCCc1cc(F)cc(F)c1	microbial growth	–	–	–	–	–	0.07
